# Measured values gathered from unrelated publications.
# A part holds a random share of what one study measured. Positions count from the first letter of the parent shown.

# Series 1
# Target: ABI1, truncated, D143A, DHFR fusion (Arabidopsis thaliana)
# Technique: DHFR PCA, deep sequencing
# Sample: yeast
# Setting: methotrexate growth selection, single substitutions
# Added: (+)-ABA 2500 µM
# Relative to: wild-type fitted maximum
# Reading: higher = stronger binding
# Starting sequence: PYL1, truncated, DHFR fusion (Arabidopsis thaliana); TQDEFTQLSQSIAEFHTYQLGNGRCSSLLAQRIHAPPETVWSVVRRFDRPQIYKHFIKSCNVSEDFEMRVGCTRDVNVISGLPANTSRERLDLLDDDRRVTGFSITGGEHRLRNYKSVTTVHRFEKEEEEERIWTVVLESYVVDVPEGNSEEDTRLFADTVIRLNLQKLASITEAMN; partner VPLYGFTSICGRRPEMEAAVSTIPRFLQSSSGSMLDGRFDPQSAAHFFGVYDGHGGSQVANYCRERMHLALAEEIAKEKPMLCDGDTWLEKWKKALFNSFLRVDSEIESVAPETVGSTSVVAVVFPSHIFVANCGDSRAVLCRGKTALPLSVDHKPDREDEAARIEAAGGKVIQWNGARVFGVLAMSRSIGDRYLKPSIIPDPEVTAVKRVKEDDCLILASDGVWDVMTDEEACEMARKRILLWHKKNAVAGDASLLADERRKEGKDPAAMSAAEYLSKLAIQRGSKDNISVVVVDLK
Change,relative binding score [%]
Y53G,73.8
V143H,29.2
E131P,103
E89G,8.08
V76N,86.8
S104H,91.2
C72K,90.5
T39Y,93.6
L112K,0.256
Q31K,102
R46L,88
D153T,75.7
L138K,42.5
P37R,82.4
R123P,98.8

# Series 2
# Target: CCNB3, cyclin fold, Cln2 fusion (human)
# Technique: yeast growth competition, sequencing
# Sample: yeast
# Setting: weak parent motif
# Relative to: not given
# Reading: higher = stronger binding
# Starting sequence: FZR1 docking peptide (human); QDYERRLLRQIVI; partner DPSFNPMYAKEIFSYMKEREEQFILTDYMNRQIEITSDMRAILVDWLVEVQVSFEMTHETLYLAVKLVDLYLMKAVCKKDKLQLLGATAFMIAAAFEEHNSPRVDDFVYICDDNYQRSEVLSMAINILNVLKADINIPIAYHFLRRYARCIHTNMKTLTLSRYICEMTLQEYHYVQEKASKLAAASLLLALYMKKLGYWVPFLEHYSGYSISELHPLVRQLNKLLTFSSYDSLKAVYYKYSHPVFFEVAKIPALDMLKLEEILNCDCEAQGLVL
Change,normalised enrichment score
QDYERRLLRAIVI [Q10A],0.511
QDYERRLLRQIVA [I13A],-0.224
QDYERRLARQIVI [L8A],0.145
QDYEKRLFRQIVI [R5K L8F],0.207
QDYERRLLAQIVI [R9A],-0.333
QDYERRALRQIVI [L7A],0.508
QDYARRLLRQIVI [E4A],0.259
QAYERRLLRQIVI [D2A],0.0821
QDYERRLFRQIVI [L8F],0.0348
QDYEARALRQIVI [R5A L7A],0.0705

# Series 3
# Target: RNA binding protein fox-1 homolog 2, RRM domain, GST-SBP tag (RBFOX2, Homo sapiens, UniProt O43251-10, residues 100-194)
# Technique: RNA Bind-n-Seq
# Form: RNA
# Sample: in vitro
# Tested at: 365 nM
# Setting: natural RNA segment, single round, ends assumed
# Relative to: no-protein control
# Reading: higher = stronger binding
# Residues (chain): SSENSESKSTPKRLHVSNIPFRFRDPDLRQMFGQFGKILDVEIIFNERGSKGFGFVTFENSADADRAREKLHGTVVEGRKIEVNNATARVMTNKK
Sequence,RBNS enrichment (R)
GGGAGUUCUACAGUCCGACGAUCGAGACUUUGAGAAACAUGGUGAUAGGCAGGGGCCUUUCCUACCAUGUUUCAAUACCUACAAACCUAUUGAAAGAGAACAGUAGGUAAAACAUUUCCUAAAGUUGAAGCAAUGGAAUUCUCGGGUGCCAA,0.293
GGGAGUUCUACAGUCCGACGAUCGUUUUCUUGAAAAGCCUUUCUCUUCCAACCAUGAAUGAACACAAACCACCACAAAACAAGCUUUAUUAACACAGGAGCCUAGUGGGGAUUGCGAAACACAGGAAUGUGCAUGGAAUUCUCGGGUGCCAA,1.13
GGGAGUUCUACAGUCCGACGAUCCAGAAACAAGCCUUGCCUGUGCAUCCUGGAGAGUUAGGUCCUUCAGAAGGCCAGAGCUGGGACAAGCCUUGACCCGUUCUGCAGCCCUUAGAGCCUUCACACGUGAGCACUGGAAUUCUCGGGUGCCAA,12.3
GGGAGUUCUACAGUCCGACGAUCGCCACAGGGAUGAGGUGAAGCCAUCUCUGUCCUUCCUGGAAUACCGGAGAUCCAGGGGCCUCCAGCUGCUCCUUUCUUCUGUGUCCUGUUAUUUGGGUCCCAGAUGGAGCUGGAAUUCUCGGGUGCCAA,0.274
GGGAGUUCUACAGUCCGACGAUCUCUCUUGAAGUUCUAGGAAGAGGCAAACUACAAACUACUAGGAUUCUGAUUUCAGAUGUAGUCAUUCCAGAACCUUCUCUUUAUGAGUUCACCUGCUAGUACAAUCUCCAUGGAAUUCUCGGGUGCCAA,0.423
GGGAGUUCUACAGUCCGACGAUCCUCCAGAUGGGAAGGUUUUAAGAGUCACACUGGCAUGGAAGGCUUAUCUGCCAUUCUAUUUAUAGCCUGAAAUGAUUCUGGCCUACCCUGUCCUGUCUGUAUGAUCUAAAUGGAAUUCUCGGGUGCCAA,0.327
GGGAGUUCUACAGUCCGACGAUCAUGCACAUACUUAAAGGACAGAAAUGUCUGGUAAAGUAAUUGUUAAAUAAUGAUAUGUAGCUUUUUAACUUUUUAAAUAAAUAAGAUUUUUUAAUGUGGGUCUCCCUCAGUGGAAUUCUCGGGUGCCAA,0.635
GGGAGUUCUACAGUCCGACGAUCGAAGUCAACUCGGGGGACAUGCAAAAAUAACUAUAUAAGACAUUAAAAGAACAAAGAGUGAAAUAUUGUAAAUGCUAUUAUACUGUUAUCCAUAUUACGUUGUUUCUUAUUGGAAUUCUCGGGUGCCAA,0.723
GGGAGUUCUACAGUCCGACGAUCUUUCCUGUAAAACCAGUCUCAUUUGGGCUUCUCAUCUGUGCUCACCUUGAACCUACAAACCUCCAUGGACAGUCAGCAGGUGGGAAGACAUGGUGUUUGCCCAUAUCACUUGGAAUUCUCGGGUGCCAA,0.247
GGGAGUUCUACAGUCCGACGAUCUCUCCCCACCCAGCUACUCGAAGCUCACUUCCUAAAGCUGCAGGGCUGCCUCGGGCAGGGCCUCCGGCCUCCGGCGCUCUCCCAGGAGGAGGUCAAGUUCCACACGCACGUGGAAUUCUCGGGUGCCAA,0.239
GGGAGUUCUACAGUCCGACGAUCAAAAGAACAUGUCUUUGGGUUCAUGUGUGGUGCUGCUGCCCGGGUGUAAACUAUCCCCACCCAGGGCCAGCCAUUAUCACCAGACCUCUUCUGGGCCUGGCUGUGAAGCCUGGAAUUCUCGGGUGCCAA,0.266
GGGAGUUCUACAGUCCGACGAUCAGAUCAAGUUCUAUGCCAGGGCUGCAGCCAAGCAGGCCCUGAGUGGAGGAUCCUGACUCUCCUCUUUCCCAAACCAAGAGUUCAAGACUUUGGCGCCUUUUCUGAACCACUGGAAUUCUCGGGUGCCAA,0.246

# Series 4
# Target: Centromere-binding protein 1, full length, His-tagged (CBF1, Saccharomyces cerevisiae, UniProt P17106, residues 1-351)
# Chain of UniProt P17106 (whole entry, looked up): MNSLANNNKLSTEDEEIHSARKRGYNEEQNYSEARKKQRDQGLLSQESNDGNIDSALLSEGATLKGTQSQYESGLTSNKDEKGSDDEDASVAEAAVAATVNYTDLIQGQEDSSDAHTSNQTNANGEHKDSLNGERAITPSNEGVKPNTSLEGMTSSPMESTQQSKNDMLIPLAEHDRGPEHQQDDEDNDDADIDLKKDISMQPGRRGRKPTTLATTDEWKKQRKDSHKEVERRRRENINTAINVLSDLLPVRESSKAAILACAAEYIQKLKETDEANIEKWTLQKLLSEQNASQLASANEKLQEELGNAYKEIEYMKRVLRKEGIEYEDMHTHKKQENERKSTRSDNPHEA
# Technique: competition protein-binding microarray
# Form: double-stranded DNA, one strand shown
# Sample: in vitro
# Tested at: 2 µM
# Setting: whole 60-bp probe, lowest competitor level
# Added: Pho4 competitor, 0.05 µM
# Reading: higher = stronger binding
Sequence,fluorescence intensity [a.u.]
CCTTAGTTGGGTCTGCATGTGGGCAGGATCTACCAAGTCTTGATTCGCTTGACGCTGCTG,85.4
CCTATTATTGTTTGTCACGATGTCTTGGCTCAAGCTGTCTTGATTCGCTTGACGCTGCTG,274
CTTTCCCGATCTTGTGAAGTGGGTGTAGCACATTTGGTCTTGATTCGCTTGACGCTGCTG,86.4
CTTTCCCGATCTTGTGATGTGGGTGTAGCACATTTGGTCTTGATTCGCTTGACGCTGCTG,111
CATCGGCCCAACTTGATCATGCAATTAGCAAGCAACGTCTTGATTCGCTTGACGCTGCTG,89.9
GTCTTGTCTCATTGCCAAGTGGGTGTCCCCACTTCAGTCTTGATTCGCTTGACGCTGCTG,64.3
TCCACCTCAAACGGCCACGCTCTGCTTTTTTTCTATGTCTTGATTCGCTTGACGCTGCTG,96
TTCCTGCTCTCGTTCCACGTTGTCATCCCACCCATTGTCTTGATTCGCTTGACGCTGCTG,76.3
GTCTTGTCTCATTGCTTAGTGGGTGTCCCCACTTCAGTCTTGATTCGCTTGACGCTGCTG,61
TAGGTCCAAAACTTGCGCGTGGAAGACGCTGGCCATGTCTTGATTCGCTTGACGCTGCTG,66.3
CTCAAAAGCTTGGGGTGCGTGGGACGGCGCTGCTCGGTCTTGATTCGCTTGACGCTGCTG,64.4
TGCGCAACAACTTGACCAGTGGGTGTATGTCTAGAAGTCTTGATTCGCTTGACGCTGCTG,64.7
CTTCTGTAAATTTGATACGTGGGTGGACGCGCCCCGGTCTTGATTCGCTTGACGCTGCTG,76.3
CTCCAACATGCTTTGCACGGGGGAGGGACAGTAGCTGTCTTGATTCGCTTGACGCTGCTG,148
CTAACGAAGGTTTGCAGGGTGGGTGACAAGCCAAGTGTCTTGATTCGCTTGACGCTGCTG,66.2
CGGGGTTAAGTTTGAGCAGTGGGTGGCTTGCAGCAGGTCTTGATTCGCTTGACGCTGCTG,60.3
GACGGAAGACTCTCCTCCGTGCGATCTCGTCTTCATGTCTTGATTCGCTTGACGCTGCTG,62.4
CTTTCCCGATCTTGGCTGGTGGGTGTAGCACATTTGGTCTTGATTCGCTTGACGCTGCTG,57.1
GCTGAGTACTTTGGGGTCGTGATGGAGCTGTGCTACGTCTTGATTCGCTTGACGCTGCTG,97.8
TGCGCAACAACTTGAGGAGTGGGTGTATGTCTAGAAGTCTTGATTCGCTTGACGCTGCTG,57
TTGAAAGGCATCGGCCACGTCGTCCCCTTCTCTAACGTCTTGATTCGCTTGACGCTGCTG,62.9
TGGCGCTTGACTCCACTCGTGAGTCTTGTTTGGACTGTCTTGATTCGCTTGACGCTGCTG,72.5
TGCGCAACAACTTGGGCCGTGGGTGTATGTCTAGAAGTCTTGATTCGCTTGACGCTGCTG,53.6
AAGACATATAATCAAAACGTGAGATTCCTGTGGAAAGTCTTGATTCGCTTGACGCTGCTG,140
ACAACGGGGAACCGCACCGTGATGGCACCTAGCCCAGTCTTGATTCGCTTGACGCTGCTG,59.4

# Series 5
# Target: Interferon regulatory factor 5, full length, phosphomimetic (IRF5, Homo sapiens, UniProt Q13568-2, residues 1-514, K96S/S451D/S453D/S456D/S462D)
# Technique: protein-binding microarray
# Form: double-stranded DNA, one strand shown
# Sample: in vitro
# Tested at: 250 nM
# Setting: 60-bp whole probe
# Added: salmon DNA 0.4 mg/ml
# Relative to: random background probes
# Reading: higher = stronger binding
# All sequences stand within: GCCTAGCAC … GTCTTGATTCGCTTGACGCTGCTG
Sequence,log fluorescence [z-score]
TTAGCTTTCGGGACTGGGTTAGTGCTA,7.42
AGGGTGTTCTTTTCTGTTGTCGTGCTA,0.97
GGCGGTATCGACACTGGGGACGTGCTA,1.64
TCACTCCTCTCTCTTTCACTGTGCTAG,1.79
CCCTTTTCATGCTCTTATATAGTGCTA,0.9
GGGCCGAGGCTGTGGCCACCGTGCTAG,-1.24
TGGGACCAGCACAGACAGTCGTGCTAG,-0.565
GACGGTAACCTTATCCTGACGTGCTAG,-0.275
TTCGGTCTCCTTATCCTTTAGTGCTAG,0.967
GACGGTTTCTTACTGCTGACGTGCTAG,0.623
TCACCTCTGCTCCTCTTACTGTGCTAG,0.223
TCATTTTTAGATTTTTTACTGTGCTAG,1.04
CACACCCGGCTCCTCTGCCAGTGCTAG,-0.81
AAAACTCTTTATTTAAGCTCGTGCTAG,0.692
TTATGACTGCTTATCCTTTAGTGCTAG,0.124
TTAGATTCCATTTTCGATTAGTGCTAG,7.61
TTAGGTATCCTTTTCCTTTCGTGCTAG,1.71

# Repeated from above (series 4):
Sequence,fluorescence intensity [a.u.]
TAGGTCCAAAACTTGCGCGTGGAAGACGCTGGCCATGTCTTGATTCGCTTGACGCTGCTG,66.3
CTCAAAAGCTTGGGGTGCGTGGGACGGCGCTGCTCGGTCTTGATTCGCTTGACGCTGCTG,64.4
TGCGCAACAACTTGACCAGTGGGTGTATGTCTAGAAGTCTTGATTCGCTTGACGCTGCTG,64.7
CTTCTGTAAATTTGATACGTGGGTGGACGCGCCCCGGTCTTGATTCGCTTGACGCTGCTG,76.3
CTCCAACATGCTTTGCACGGGGGAGGGACAGTAGCTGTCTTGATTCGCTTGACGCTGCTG,148
CTAACGAAGGTTTGCAGGGTGGGTGACAAGCCAAGTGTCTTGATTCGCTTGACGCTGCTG,66.2
CGGGGTTAAGTTTGAGCAGTGGGTGGCTTGCAGCAGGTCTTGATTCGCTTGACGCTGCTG,60.3
GACGGAAGACTCTCCTCCGTGCGATCTCGTCTTCATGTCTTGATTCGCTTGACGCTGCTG,62.4
CTTTCCCGATCTTGGCTGGTGGGTGTAGCACATTTGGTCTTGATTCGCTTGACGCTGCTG,57.1
GCTGAGTACTTTGGGGTCGTGATGGAGCTGTGCTACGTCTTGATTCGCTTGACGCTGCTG,97.8
